Measured values pooled from the literature.
Each numbered part is a random draw from the data of one study; scales do not carry over between parts. Substitutions count along the parent as printed.

Sample 1 — method: universal PBM; form: double-stranded DNA, one strand shown; matrix: in vitro; tested at: 600 nM; reading: higher = stronger binding
Target: Sal-like protein 4, full length isoform A (SALL4, Homo sapiens, UniProt Q9UJQ4, residues 1-1053)
Chain of UniProt Q9UJQ4 (whole entry, looked up): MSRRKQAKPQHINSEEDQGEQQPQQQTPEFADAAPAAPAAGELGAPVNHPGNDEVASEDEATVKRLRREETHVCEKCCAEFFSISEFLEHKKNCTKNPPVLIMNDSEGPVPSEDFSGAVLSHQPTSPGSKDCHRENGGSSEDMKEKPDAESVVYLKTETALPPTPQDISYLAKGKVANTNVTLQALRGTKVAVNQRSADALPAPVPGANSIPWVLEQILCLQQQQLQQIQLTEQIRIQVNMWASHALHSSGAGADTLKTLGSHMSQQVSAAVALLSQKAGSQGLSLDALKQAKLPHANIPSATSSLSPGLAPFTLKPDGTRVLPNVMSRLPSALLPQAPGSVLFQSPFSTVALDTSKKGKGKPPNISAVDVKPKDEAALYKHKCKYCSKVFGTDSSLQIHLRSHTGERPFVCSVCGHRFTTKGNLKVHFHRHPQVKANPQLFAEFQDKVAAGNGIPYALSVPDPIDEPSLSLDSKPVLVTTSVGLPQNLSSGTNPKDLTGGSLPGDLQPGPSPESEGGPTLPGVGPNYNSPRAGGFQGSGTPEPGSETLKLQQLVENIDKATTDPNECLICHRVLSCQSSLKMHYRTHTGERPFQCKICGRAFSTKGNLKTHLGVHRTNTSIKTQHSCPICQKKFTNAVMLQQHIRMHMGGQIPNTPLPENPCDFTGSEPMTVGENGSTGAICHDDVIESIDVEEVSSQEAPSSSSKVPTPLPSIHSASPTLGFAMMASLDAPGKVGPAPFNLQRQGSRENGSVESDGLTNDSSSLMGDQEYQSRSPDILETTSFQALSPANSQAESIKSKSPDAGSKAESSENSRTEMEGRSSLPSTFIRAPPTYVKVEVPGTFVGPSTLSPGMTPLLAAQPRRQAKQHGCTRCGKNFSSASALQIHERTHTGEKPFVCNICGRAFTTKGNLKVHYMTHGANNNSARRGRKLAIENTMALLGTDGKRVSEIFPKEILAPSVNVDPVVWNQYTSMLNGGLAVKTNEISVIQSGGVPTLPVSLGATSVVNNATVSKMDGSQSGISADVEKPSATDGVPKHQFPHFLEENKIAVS
Setting: 8-mer, flanks averaged, mean of replicates
The E-score of `ATTTCTCG` is reported as 0.218.
For `AGCGGGTG`, the E-score was -0.248.
For `GCTACTGA`, the E-score was -0.077.
`GATCAGTA` has an E-score of 0.11.
With `CCCTCATA` the E-score was -0.0328.
`AAGTCCGC` gave an E-score of -0.219.
`CTTATGGA` gave an E-score of 0.171.
`ACTTGGAG` gave an E-score of -0.141.
`CGTTATGC` has an E-score of 0.173.
For `TCTCGTCA`, the E-score was 0.0525.
For `AGCACTCG`, the E-score was -0.231.
`ACGTTGAT` gave an E-score of 0.187.
With `GCGATCAA` the E-score was 0.00017.
With `AAACAGTT` the E-score was 0.215.
`ATGAACCG` gave an E-score of -0.0669.
`GCTAAATA` has an E-score of 0.246.
The E-score of `CACAAGCA` is reported as -0.0317.
For `GCATGTCC`, the E-score was -0.164.
The E-score of `CCTGAGAC` is reported as -0.211.
For `AGCACCAG`, the E-score was -0.129.
`ACGGGCAA` has an E-score of -0.073.
With `CACACGGG` the E-score was -0.236.
For `CGCTACGC`, the E-score was -0.225.

Sample 2 — method: RNA Bind-n-Seq; form: RNA; matrix: in vitro; tested at: 365 nM; baseline: no-protein control; reading: higher = stronger binding
Target: RNA binding protein fox-1 homolog 2, RRM domain, GST-SBP tag (RBFOX2, Homo sapiens, UniProt O43251-10, residues 100-194)
Setting: natural RNA segment, single round, ends assumed
All sequences stand within: GGGAGUUCUACAGUCCGACGAUC … UGGAAUUCUCGGGUGCCAA
Target sequence (chain): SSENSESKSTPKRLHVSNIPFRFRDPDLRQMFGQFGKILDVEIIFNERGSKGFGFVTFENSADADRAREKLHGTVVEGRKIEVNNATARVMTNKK
`AGGCUCACAUGCACAGGAAUGCUACAUGAUGGCCAGCUGCUUCCCUCCUUGGUUAUCAUCCACUGCAGCUGCUAGUUAGAAAGGUUUGGAGGGAUGACUUUUAGUAAAUC` — result for “RBNS enrichment (R)”: 1.99.
`GGAGUAAUGUUAUAAUAAUAUUUUUAUUAGAAUGUUCUGAUUAUAAAAAAUAAAACUUGUUUUCUUUAAAGAAAAAGGUGGUUUGAGGUUUUUCUCAAUGGCAAGGUGGU`: “RBNS enrichment (R)” 0.564.
Under “RBNS enrichment (R)”, `AACAUCCAGCUUUUUUCCUGCCUCCCUCUGAAUUCUCCAGGAUCUGCUUCACCCUCACCACCACCACUUCCAAGGAUCAAAGCUGUCUACAGCUCCAUCAAAACCUUUCA` is recorded as 0.772.
`GACUGGAGACAUUUUCUUGUGUGGUUUUCUGGGUUUCGUCCUUCUGCAGCUGUCAUGGCUUUACAGUCACUUGGGAAAUGCAAGCCACUGUUAAAGCUUUGUCCUGUUCA` — result for “RBNS enrichment (R)”: 0.278.
`CUUUUGCCUUGACAGGUCUCUCCUUGGGAUUUGCUCCUCCAGAACCUGAAUUGGAGAGCUUGACCUUUUGCUUGUUAUUUUGCAGUUUGAUUUUGGGCCUAAAGAUGCCA`: “RBNS enrichment (R)” 2.27.
Under “RBNS enrichment (R)”, `CCCACCUGCACCUAGCAAGGAACAGGUGUUUGAUGUAUUUUGCUCAUGACUGCAGUAUGCAUGUAUUUUUUUCCUUCUCUGUGUUUUCUAAACUUACACUAAAGGAUUCA` is recorded as 12.1.
Under “RBNS enrichment (R)”, `UGAUAGCUAUUUUCAUUUGCUCUAUUUUCCUCUGCAUUGUACUAAUCUGUUACUCAGUGUUAGUCUUCAUUUUUCUGUGUUGGAAACCUGCGUCAUGUAAAUAUCUGCAA` is recorded as 0.264.
`CAGGAACAGAAGGCAGCUGCUGCUUUCUGUGGAAACCUGGCCCCUCUGGAAUUGGCCUCUGUGGGCAUUGACUCGUCUUGGCCUAGGAGGCAUUGGUGCCUCCCUGGCAA`: “RBNS enrichment (R)” 0.588.
`ACUCCGGGAGCCCAGCCCCCAUCGGGGGCUUCCUGUACCUCCUUUUGCCUGGCUCUGCUCUUUAGACUCCAGAUCCCUACCCCUCAGCAACUAGCUCCCCUGUCGGCCAG`: “RBNS enrichment (R)” 0.577.
Under “RBNS enrichment (R)”, `AGCUGUUUUUCUGCUCCUUUGUGGAAGGCAGUUAUGAUCAGGCUGCAUGGACAAAGCAGGUAGAGGGGCACCAUCAGGGGCUCUUGCACUAUUUUCACCUCUAAAUAUUA` is recorded as 0.698.
Under “RBNS enrichment (R)”, `AGAUAAGAAAACUGCAUGUGGAGAGCGGCGCACAAGAGUUCUGAGUUCAGCACGUCCCCCACCCUCUUCCUGCCGCCUGCAAACCUCACGUGCAGCUUUUCUAUAUGCAC` is recorded as 4.63.
`CUACAGGACUCCCGAGUGUGAGCCGCGGUUCCUCUGUUGCAGCGCAGCCGUGUGUGCUGUGGAGCCGAGGCCGUCCUGCAGGAAGCCGCGUGACUCCCGCCUCCUCCCUG`: “RBNS enrichment (R)” 0.611.

Sample 3 — target: FOSL2, bZIP domain (human); method: DHFR protein complementation; matrix: yeast; baseline: wild-type JUN-FOS pair; reading: higher = stronger binding
Setting: single substitutions, most at no-binding floor
Starting sequence: JUN, bZIP domain (human); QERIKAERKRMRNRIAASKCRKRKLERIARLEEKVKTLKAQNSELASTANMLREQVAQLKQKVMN; partner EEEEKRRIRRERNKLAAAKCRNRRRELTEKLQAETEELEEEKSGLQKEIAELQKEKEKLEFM
For `L38Y`, the binding fitness was -0.785 natural log.
The binding fitness of `S47F` is reported as 0.09 natural log.
For `K36T`, the binding fitness was -0.0192 natural log.
For `L45Y`, the binding fitness was -0.189 natural log.
The binding fitness of `L45D` is reported as -1.17 natural log.
`E54I` gave a binding fitness of -0.0396 natural log.
`A49I` has a binding fitness of -0.158 natural log.
`E54C` has a binding fitness of -0.158 natural log.
For `L52Q`, the binding fitness was -1.5 natural log.
`K36L` has a binding fitness of 0.0268 natural log.
The binding fitness of `L59H` is reported as -0.964 natural log.
The binding fitness of `S43I` is reported as 0.0622 natural log.

Sample 4 — method: DHFR PCA, deep sequencing; matrix: yeast; added: (+)-ABA 0.39 µM; baseline: wild-type fitted maximum; reading: higher = stronger binding
Target: ABI1, truncated, D143A, DHFR fusion (Arabidopsis thaliana)
Setting: methotrexate growth selection, single substitutions
Starting sequence: PYL1, truncated, DHFR fusion (Arabidopsis thaliana); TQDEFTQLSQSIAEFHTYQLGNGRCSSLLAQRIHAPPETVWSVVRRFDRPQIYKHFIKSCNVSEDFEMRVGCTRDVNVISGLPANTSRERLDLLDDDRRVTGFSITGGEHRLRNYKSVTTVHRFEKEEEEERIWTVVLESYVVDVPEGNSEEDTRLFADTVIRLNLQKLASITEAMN
For `T173H`, “relative binding score” read -6.3%.
For `E89Y`, “relative binding score” read -4.4%.
`G148Q`: “relative binding score” -3.94%.
For `G107T`, “relative binding score” read -3.57%.
For `S171D`, “relative binding score” read 56.1%.
For `P50F`, “relative binding score” read -13.1%.
`A158C`: “relative binding score” 83.1%.
Under “relative binding score”, `T101L` is recorded as 73.8%.
For `T86D`, “relative binding score” read 14.7%.
`L82A` — result for “relative binding score”: 3.03%.
`H34P` — result for “relative binding score”: 5%.
`A175Y`: “relative binding score” -9.97%.
`I57W`: “relative binding score” -7.94%.
`S140F`: “relative binding score” -22.4%.

Sample 5 — method: protein-binding microarray; form: double-stranded DNA, one strand shown; matrix: in vitro; tested at: 2540 nM top; setting: 60-bp whole probe; added: salmon DNA 0.4 mg/ml; baseline: random background probes; reading: higher = stronger binding; all sequences stand within: GCCTAGCAC … GTCTTGATTCGCTTGACGCTGCTG
Target: Interferon regulatory factor 3, full length, phosphomimetic (IRF3, Homo sapiens, UniProt Q14653, residues 1-427, S386D/S396D/S398D/S402D/T404D/S405D)
Target sequence (chain): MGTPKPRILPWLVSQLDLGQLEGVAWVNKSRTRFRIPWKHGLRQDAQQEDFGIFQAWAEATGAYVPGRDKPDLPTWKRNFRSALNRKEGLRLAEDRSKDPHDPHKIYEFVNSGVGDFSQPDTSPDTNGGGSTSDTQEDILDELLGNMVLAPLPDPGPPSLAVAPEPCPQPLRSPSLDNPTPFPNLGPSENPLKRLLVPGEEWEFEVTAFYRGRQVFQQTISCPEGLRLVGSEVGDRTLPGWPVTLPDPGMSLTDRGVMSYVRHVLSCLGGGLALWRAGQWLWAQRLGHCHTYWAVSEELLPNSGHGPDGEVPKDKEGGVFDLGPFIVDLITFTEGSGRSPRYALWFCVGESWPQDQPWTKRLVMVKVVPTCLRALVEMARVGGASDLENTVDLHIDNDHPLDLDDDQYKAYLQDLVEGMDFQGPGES
`GACGGTATCGGGACTGCGGACGTGCTA` — result for “fitted relative affinity”: 1.86 z-score.
Under “fitted relative affinity”, `AGGCAGGCATAAAGGAAAAAGTGCTAG` is recorded as -0.878 z-score.
`TTAGGTTTCGGGACGGGGTTAGTGCTA`: “fitted relative affinity” 3.19 z-score.
`GATGGACTGCTACTGCTGACGTGCTAG`: “fitted relative affinity” -0.918 z-score.
For `TCAGGACTGGACTATCGGTTAGTGCTA`, “fitted relative affinity” read -0.238 z-score.
`GACGGACTGGGTTTCGAGACGTGCTAG` — result for “fitted relative affinity”: 0.403 z-score.
For `GGCGGACTGGACTATCGGGACGTGCTA`, “fitted relative affinity” read -0.838 z-score.
`TCATCTCTACTTGTGTCACTGTGCTAG` — result for “fitted relative affinity”: 1.19 z-score.
Under “fitted relative affinity”, `TTAGGTCTCCTTCTCCTTTCGTGCTAG` is recorded as 4.17 z-score.
`TTAGGTTGCCTTTTCCTTTAGTGCTAG`: “fitted relative affinity” 6.97 z-score.
Under “fitted relative affinity”, `TTAGGTCTCCTACAGCTTTAGTGCTAG` is recorded as -0.169 z-score.
For `TGTTACATTTATATCTTTGCGTGCTAG`, “fitted relative affinity” read 1.55 z-score.
Under “fitted relative affinity”, `TTAGGTATCGGGGATCGGTTAGTGCTA` is recorded as 0.31 z-score.
`TTAGGTTTCGCTATCGGTTAGTGCTAG` — result for “fitted relative affinity”: 6.02 z-score.
Under “fitted relative affinity”, `CTTGCTACACATCTCACTCTGTGCTAG` is recorded as 0.599 z-score.

Sample 6 — target: CCND2, cyclin fold, Cln2 fusion (human); method: yeast growth competition, sequencing; matrix: yeast; setting: strong parent motif; baseline: not given; reading: higher = stronger binding
Starting sequence: PKN2 docking peptide (human); VSAVRKLDFSDTM
`A3D`: “normalised enrichment score” -0.0566.
`T12V`: “normalised enrichment score” 2.95.
For `T12I`, “normalised enrichment score” read 3.35.
For `D8K`, “normalised enrichment score” read 1.18.
`S2G`: “normalised enrichment score” 3.28.
`S10C` — result for “normalised enrichment score”: 2.97.
For `V4F`, “normalised enrichment score” read 0.625.
`L7I` — result for “normalised enrichment score”: 3.3.
For `D11P`, “normalised enrichment score” read 2.59.
Under “normalised enrichment score”, `T12S` is recorded as 3.83.
Under “normalised enrichment score”, `T12G` is recorded as 3.43.
`R5I` — result for “normalised enrichment score”: 0.922.
For `D8S`, “normalised enrichment score” read 3.01.
Under “normalised enrichment score”, `F9V` is recorded as 0.271.
For `R5A`, “normalised enrichment score” read 0.685.
For `S2K`, “normalised enrichment score” read 2.68.
Under “normalised enrichment score”, `D11L` is recorded as 2.91.
Under “normalised enrichment score”, `F9C` is recorded as 0.186.
`V4I`: “normalised enrichment score” 4.18.
For `R5F`, “normalised enrichment score” read 0.398.
Under “normalised enrichment score”, `R5S` is recorded as 0.239.
`L7A` — result for “normalised enrichment score”: 0.284.
`R5D` — result for “normalised enrichment score”: 0.264.
For `V4A`, “normalised enrichment score” read 3.26.
Under “normalised enrichment score”, `A3E` is recorded as -0.249.

Other studies, line by line
With `PhoQ, residues 284 288 289 292 302 303 SVTLVV` the fold induction was 2.01 (PhoP, residues 12 14 15 18 19 LHHVQ (Escherichia coli, UniProt P23836); Sort-seq, measured: YFP reporter; E. coli; PhoQ-PhoP variant library, added: 10 µM Mg2+; baseline: high Mg2+ state, higher = stronger signaling).

Excerpt of the above (sample 3):
For `L38Y`, the binding fitness was -0.785 natural log.
The binding fitness of `L59H` is reported as -0.964 natural log.
`E54C` has a binding fitness of -0.158 natural log.
The binding fitness of `S43I` is reported as 0.0622 natural log.
For `L45Y`, the binding fitness was -0.189 natural log.
For `K36T`, the binding fitness was -0.0192 natural log.
The binding fitness of `L45D` is reported as -1.17 natural log.
`A49I` has a binding fitness of -0.158 natural log.
